Measured values pooled from the literature.
Parts stem from different laboratories: compare values within a part only. Values joined by “and” are separate records of one study, mostly repeats; a detail may differ.

Series 1
Target: Ras GTPase-activating protein-binding protein 1, full length (G3BP1, Homo sapiens, UniProt Q13283)
Sequence of UniProt Q13283 (whole entry, looked up): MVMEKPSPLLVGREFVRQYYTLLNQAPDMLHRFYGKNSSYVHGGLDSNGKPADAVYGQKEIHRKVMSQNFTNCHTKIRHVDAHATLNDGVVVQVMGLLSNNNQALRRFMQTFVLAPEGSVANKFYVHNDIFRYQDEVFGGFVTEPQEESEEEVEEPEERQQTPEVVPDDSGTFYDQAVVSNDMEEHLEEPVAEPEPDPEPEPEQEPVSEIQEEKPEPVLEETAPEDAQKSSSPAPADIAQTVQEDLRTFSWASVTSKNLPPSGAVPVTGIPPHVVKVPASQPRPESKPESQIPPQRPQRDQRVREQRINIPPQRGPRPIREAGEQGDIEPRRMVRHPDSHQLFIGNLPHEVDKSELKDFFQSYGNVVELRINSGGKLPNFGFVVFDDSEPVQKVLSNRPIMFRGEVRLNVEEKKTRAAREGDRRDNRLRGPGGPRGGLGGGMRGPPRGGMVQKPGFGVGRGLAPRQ
Technique: RNA Bind-n-Seq
Molecule type: RNA
Sample: in vitro
Concentration: 200 nM
Notes: whole 134-nt RNA, ends assumed
With: 150 mM KCl
Relative to: input library
Direction: higher = stronger binding
Constant ends, left off below: GGGAGUUCUACAGUCCGACGAUC … UGGAAUUCUCGGGUGUCAAGG
For `AGUCCUGUGCUACACAUCGUAUGUACCGAAUCGGGGAGGGGAGGGGAAAAAAAGGGGAAAGUAUUAUGUUACGCCGUUCGGAUCUGCACU`, the log2 enrichment was 0.491.
For `ACCAUGCAGGUGGGCAUCUUUGGGAAGUGGGGCAAGGGGGGGAUAGGGAGGGGGGUAACACUUUGGGAACAGGUGGUAAAAGGUCGUUUC`, the log2 enrichment was 1.22.
With `UGACUUUAGGAGAUACCUUAACUCGACGUUCCAUUAGCCAGCAGAAGUCCGGAGUUUCCAUUACCAUUGAUGACCCAGUCCGAACUGCCC` the log2 enrichment was -0.0508.
With `AGUCCUGUGCUACACAUCGUAUGUACCGAAUCGGCCCCCGGGCCCCCGGCCCCCGGGGAAAGUAUUAUGUUACGCCGUUCGGAUCUGCAC` the log2 enrichment was -0.527.
With `UCCUGUGCUACACAUCGUAUGUACCGAAUCGGGGAAAAAAGGAAAAAAGGGAAAAAAGGGAAAGUAUUAUGUUACGCCGUUCGGAUCUGC` the log2 enrichment was -0.189.
For `CAAGUCCUGUGCUACACAUCGUAUGUACCGAAUCGGGAGGGUUUUUGGGAAAGGGAAAGUAUUAUGUUACGCCGUUCGGAUCUGCACUUC`, the log2 enrichment was 0.357.

Series 2
Target: Sal-like protein 4, full length isoform A (SALL4, Homo sapiens, UniProt Q9UJQ4, residues 1-1053)
Sequence of UniProt Q9UJQ4 (whole entry, looked up): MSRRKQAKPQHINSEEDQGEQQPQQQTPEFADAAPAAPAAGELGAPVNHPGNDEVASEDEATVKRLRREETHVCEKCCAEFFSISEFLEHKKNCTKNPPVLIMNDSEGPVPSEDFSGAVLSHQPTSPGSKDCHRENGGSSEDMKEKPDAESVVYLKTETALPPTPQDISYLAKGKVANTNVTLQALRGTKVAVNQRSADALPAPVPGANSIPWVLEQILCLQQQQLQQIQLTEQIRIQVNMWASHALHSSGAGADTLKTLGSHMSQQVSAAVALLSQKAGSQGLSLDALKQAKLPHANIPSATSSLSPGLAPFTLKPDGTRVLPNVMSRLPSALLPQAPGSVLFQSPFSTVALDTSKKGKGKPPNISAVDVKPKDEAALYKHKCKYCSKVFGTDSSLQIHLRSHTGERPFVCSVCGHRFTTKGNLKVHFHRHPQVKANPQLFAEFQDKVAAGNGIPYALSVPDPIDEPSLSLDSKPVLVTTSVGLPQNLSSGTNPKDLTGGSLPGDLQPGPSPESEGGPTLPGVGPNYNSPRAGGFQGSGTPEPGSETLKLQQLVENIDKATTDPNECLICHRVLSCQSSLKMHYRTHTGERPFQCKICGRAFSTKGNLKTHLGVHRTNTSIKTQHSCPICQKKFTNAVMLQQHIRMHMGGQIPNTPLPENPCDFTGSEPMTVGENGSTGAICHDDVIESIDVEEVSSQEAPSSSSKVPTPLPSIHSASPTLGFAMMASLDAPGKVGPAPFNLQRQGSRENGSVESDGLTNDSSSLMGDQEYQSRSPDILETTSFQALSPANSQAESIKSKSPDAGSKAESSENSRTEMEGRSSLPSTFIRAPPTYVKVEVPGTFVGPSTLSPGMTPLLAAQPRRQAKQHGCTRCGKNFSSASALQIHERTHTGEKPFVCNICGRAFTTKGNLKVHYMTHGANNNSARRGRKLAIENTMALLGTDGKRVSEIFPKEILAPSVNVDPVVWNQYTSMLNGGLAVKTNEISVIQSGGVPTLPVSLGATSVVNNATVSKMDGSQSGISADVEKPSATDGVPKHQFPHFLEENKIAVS
Technique: universal PBM
Molecule type: double-stranded DNA, one strand shown
Sample: in vitro
Concentration: 600 nM
Notes: 8-mer, flanks averaged, mean of replicates
Direction: higher = stronger binding
For `ACTAACCC`, the E-score was -0.152.
`CATGGAAC` gave an E-score of -0.127.
`ACAATCAG` has an E-score of 0.0581.
`AGTGGGCG` gave an E-score of -0.127.
The E-score of `AGGTTCCA` is reported as -0.102.
The E-score of `ATCCCATA` is reported as 0.222.
With `CGAACGGA` the E-score was -0.123.
With `ACCACATA` the E-score was 0.207.
`AACACCGT` has an E-score of -0.0797.
`CAATATTA` has an E-score of 0.434.

Series 3
Target: Interferon regulatory factor 3, full length, phosphomimetic (IRF3, Homo sapiens, UniProt Q14653, residues 1-427, S386D/S396D/S398D/S402D/T404D/S405D)
Technique: protein-binding microarray
Molecule type: double-stranded DNA, one strand shown
Sample: in vitro
Concentration: 2540 nM top
Notes: 60-bp whole probe
With: salmon DNA 0.4 mg/ml
Relative to: random background probes
Direction: higher = stronger binding
Constant ends, left off below: GCCTAGCAC … GTCTTGATTCGCTTGACGCTGCTG
Target sequence (chain): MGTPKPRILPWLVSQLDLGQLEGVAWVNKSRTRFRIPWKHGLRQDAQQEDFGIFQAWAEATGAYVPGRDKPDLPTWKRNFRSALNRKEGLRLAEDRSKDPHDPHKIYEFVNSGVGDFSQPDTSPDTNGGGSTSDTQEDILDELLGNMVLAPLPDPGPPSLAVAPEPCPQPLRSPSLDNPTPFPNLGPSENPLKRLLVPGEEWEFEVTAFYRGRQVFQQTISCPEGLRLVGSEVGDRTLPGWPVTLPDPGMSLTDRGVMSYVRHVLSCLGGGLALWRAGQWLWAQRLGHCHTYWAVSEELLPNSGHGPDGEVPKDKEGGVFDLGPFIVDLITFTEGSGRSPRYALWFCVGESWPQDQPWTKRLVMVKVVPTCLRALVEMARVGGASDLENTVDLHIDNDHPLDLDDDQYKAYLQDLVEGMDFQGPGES
Under “fitted relative affinity”, `ATAGATTTCAGTATCGATTAGTGCTAG` is recorded as 2.72 z-score.
`GACGGTTTCGACTATGGGGACGTGCTA` — result for “fitted relative affinity”: 2.89 z-score.
Under “fitted relative affinity”, `GACGGACTGGGGACAGGGGACGTGCTA` is recorded as -0.673 z-score.
For `TTAGGGATCGACTATCGGTTAGTGCTA`, “fitted relative affinity” read -0.149 z-score.
For `GACCATTTCAGTATCGAGACGTGCTAG`, “fitted relative affinity” read 2.62 z-score.
For `TGCCTTTTGCTTTACTGATGGTGCTAG`, “fitted relative affinity” read 0.852 z-score.
For `TCAAATTGTCTTTTCACACTGTGCTAG`, “fitted relative affinity” read 0.974 z-score.
`TTAGGTTTCCTTTTCCTTTGGTGCTAG`: “fitted relative affinity” 12 z-score.
`GACGGTATCGGACTGGGTACGTGCTAG`: “fitted relative affinity” 1.64 z-score.
`GACGGCATCGGTCTCGGGACGTGCTAG` — result for “fitted relative affinity”: -0.414 z-score.

Single results of other studies
The fold induction of `PhoQ, residues 284 288 289 292 302 303 TAVSDG` is reported as 5.35 and 5.26 (PhoP, residues 12 14 15 18 19 LWHSL (Escherichia coli, UniProt P23836); Sort-seq, item: YFP reporter; E. coli; PhoQ-PhoP variant library, with: 10 µM Mg2+; relative to: high Mg2+ state, higher = stronger signaling).

A few entries again (series 2):
`AACACCGT` has an E-score of -0.0797.
With `CGAACGGA` the E-score was -0.123.
